Measurements of several laboratories.
Numbered parts are unrelated; each lists some results of a single study. Changes are numbered by the printed parent chain.

Block 1 — method: RNA Bind-n-Seq; form: RNA; matrix: in vitro; tested at: 365 nM; reference: no-protein control; reading: higher = stronger binding
Target: RNA binding protein fox-1 homolog 2, RRM domain, GST-SBP tag (RBFOX2, Homo sapiens, UniProt O43251-10, residues 100-194)
Notes: natural RNA segment, single round, ends assumed
Shared flanks, not repeated: GGGAGUUCUACAGUCCGACGAUC … UGGAAUUCUCGGGUGCCAA
Residues (chain): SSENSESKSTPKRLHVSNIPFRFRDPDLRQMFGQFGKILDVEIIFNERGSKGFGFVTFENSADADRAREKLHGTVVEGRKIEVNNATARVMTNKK
`CCUCGUGCCUGGCUCGUCUGCCACCUACAUUUCUCUUUCCAGCUGCUGUUUUGUAAAAAGAAAAAGAAAAAAGAAGCCCAAACUAGUGAGAGUAAUAUCUAAUUAUCUCA`: “RBNS enrichment (R)” 0.355.
`GUUGGGCAAUUAGUUUGUAAUUUGUUUUAGGCAAUCACUAUAAAUUAUAAUUAUGGACACUGCAUCAGUAUACAUAACAUGAAGGAAUAAAAAGGAUACAGAAUUGUAUA` — result for “RBNS enrichment (R)”: 0.556.
`GCUUUGCUUGAGAAGACCCCAGGGAGGACUGUCUUCCACUGCCUGGACUCCUCUCAAGUUGAAGUCAUCGUCUUCAUCUUCCUCCGUAUCUUCUUCCCUCAACUUCUUCA` — result for “RBNS enrichment (R)”: 1.05.
For `UCAGCUUUUGAUUUCCAUGGCCCCACCAUUUAUGUGCAAGAUUUGCAAUGGUUGUCAGCUUCCUCUGAAGACCGAGCUUGACGCCUCCAUGCCAGCUGCCGUUGGAGACG`, “RBNS enrichment (R)” read 0.471.
Under “RBNS enrichment (R)”, `ACUUCCGGAGAGUUGUGGACUUUAUAGAUGAAGGGGUCAACAUUGGCUUAGAGGUGAAGAGCAAGACUGGCAAGCUCCAGGAUUUCAAAUCCUUCCUGCUUAAGGACUCA` is recorded as 0.636.
Under “RBNS enrichment (R)”, `CCACACCUCAGGUCCAGCGCACACUUCCUCCUUGCAUAGCAGGUGGGAGCAGACUUCUAAUGGACAGAAGCCACGUGGGAAGUAGAGACUUGGAGGGAGACGCCGAGGUG` is recorded as 0.371.
For `GAGCUACAAUCAUGGCUUUUCAUGUUACUUACCAAGUGGUGUUUCUGGUUAGGAAUCACAGCUGUAAAAUUGAUUUCAGUUCAUCACACUUCUUCAUGAUGUUGCCCCUA`, “RBNS enrichment (R)” read 0.384.
Under “RBNS enrichment (R)”, `AAUCCUCAGAAGCCUUACAAAAAUUGAGAUGUACCAUUUCUACCCUUUGAGAAAAAAGAAAUAGAAACUUACUUGAUGCAGAAUGGAUAUUUAUAUUUCUGCUUGCACCA` is recorded as 0.661.

Block 2 — method: protein binding microarray; form: double-stranded DNA, one strand shown; matrix: in vitro; tested at: not given; reference: not given; reading: higher = stronger binding
Target: Histone acetyltransferase KAT6A, winged helix 2, GST fusion (KAT6A, Homo sapiens, UniProt Q92794, residues 85-181)
Notes: 8-mer, flanks averaged, mean of 2 arrays, mostly near background
Residues (chain): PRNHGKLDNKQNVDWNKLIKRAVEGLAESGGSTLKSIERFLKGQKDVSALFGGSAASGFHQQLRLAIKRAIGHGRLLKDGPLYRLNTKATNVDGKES
The E-score of `CCGTGCCA` is reported as -0.0656.
`CCCAGGGG` gave an E-score of 0.00709.
The E-score of `ATATAATA` is reported as 0.128.
The E-score of `ATTAAGGC` is reported as -0.0174.
The E-score of `GTTATGTA` is reported as -0.182.
The E-score of `ATCCGGCC` is reported as 0.156.
The E-score of `ATTTAGCG` is reported as -0.0234.
With `CAGACTTC` the E-score was -0.193.
The E-score of `ATAAAGTC` is reported as -0.109.
The E-score of `ACGGCTGA` is reported as 0.0527.
For `AGACCGAC`, the E-score was 0.0354.
With `GCATTTCA` the E-score was 0.0325.
The E-score of `ACTTAGAG` is reported as -0.0499.
The E-score of `CGGCGACC` is reported as 0.169.
For `TCGGGAGA`, the E-score was 0.0132.
The E-score of `AGTGGTTG` is reported as 0.0864.

Block 3 — target: CCNE1, cyclin fold, Cln2 fusion (human); method: yeast growth competition, sequencing; matrix: yeast; notes: strong parent motif; reference: not given; reading: higher = stronger binding
Starting sequence: E2F3 docking peptide (human); PPAKRRLELGESG
Under “normalised enrichment score”, `R5A L7A` is recorded as 0.076.
For `G13A`, “normalised enrichment score” read 0.365.
`R5A` — result for “normalised enrichment score”: 0.484.
Under “normalised enrichment score”, `E11A` is recorded as 1.08.
`R5K L9F`: “normalised enrichment score” 2.5.
For `P2A`, “normalised enrichment score” read 0.944.
`P1A`: “normalised enrichment score” 0.595.
`R5K` — result for “normalised enrichment score”: -0.386.
`L9A` — result for “normalised enrichment score”: 0.91.

Block 4 — method: competition protein-binding microarray; form: double-stranded DNA, one strand shown; matrix: in vitro; tested at: 2 µM; added: Pho4 competitor, 0.05 µM; reading: higher = stronger binding; shared flanks, not repeated: … GTCTTGATTCGCTTGACGCTGCTG
Target: Centromere-binding protein 1, full length, His-tagged (CBF1, Saccharomyces cerevisiae, UniProt P17106, residues 1-351)
Chain of UniProt P17106 (whole entry, looked up): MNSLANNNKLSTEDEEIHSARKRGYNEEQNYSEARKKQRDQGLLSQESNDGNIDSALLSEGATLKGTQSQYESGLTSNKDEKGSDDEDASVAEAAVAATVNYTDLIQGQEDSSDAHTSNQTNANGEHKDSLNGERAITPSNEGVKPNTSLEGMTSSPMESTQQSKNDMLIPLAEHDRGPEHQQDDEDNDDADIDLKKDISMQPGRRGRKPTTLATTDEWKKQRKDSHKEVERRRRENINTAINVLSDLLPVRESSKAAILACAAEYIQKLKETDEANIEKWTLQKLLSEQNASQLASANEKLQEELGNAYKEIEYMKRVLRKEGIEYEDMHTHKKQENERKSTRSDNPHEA
Notes: whole 60-bp probe, lowest competitor level
`TGCGCAACAACTTGTCCTGTGGGTGTATGTCTAGAA` gave a fluorescence intensity of 76.7 a.u.
`GACGGAACCGTTCCGCTCGTGGCCGATTCAATGTGT` gave a fluorescence intensity of 75.9 a.u.
The fluorescence intensity of `CGGGCCTCAGGCAGCCACGAGGTAGACGGGCTCAGG` is reported as 71.1 a.u.
`AACGAAATCCACCATCACGTTCCTAGCAACAAGAGG` gave a fluorescence intensity of 281 a.u.
With `CGGGGTTAAGTTTGACACGTGGGTGGCTTGCAGCAG` the fluorescence intensity was 827 a.u.
With `CTTCTGAAAGTTTAACACGTGCCGTATCTACGGCTG` the fluorescence intensity was 1780 a.u.
With `CGGGGTTAAGTTTGTTGCGTGGGTGGCTTGCAGCAG` the fluorescence intensity was 87.8 a.u.
The fluorescence intensity of `AAAGCGGTAATTTTTCACGTGCCGTCAAATATCTAT` is reported as 1760 a.u.
The fluorescence intensity of `CCATACGTTTACGTAGGCGTGCTTTTTTCAAAGAGT` is reported as 106 a.u.
`AAAGCCAGGCCGAGTCACGTCAGTTGCTGACCCTGG` gave a fluorescence intensity of 81.2 a.u.
For `CTTGGATGGATAGGACACGTGACGGCTTGAATGTAG`, the fluorescence intensity was 6450 a.u.
`CATTCAATTCCGAGTCACGTGGGTAAATGATAATGG` gave a fluorescence intensity of 12400 a.u.
With `TAGAAATTCCTCCTTCACGTTCTGTTGAAGGGAGGA` the fluorescence intensity was 82.6 a.u.
For `ACAATCGCATAATCGCACGTATATACAGGCACACAA`, the fluorescence intensity was 77.4 a.u.
For `TCATCTCTAAGAGTTGCCGTGCCGATCCATCCGCTT`, the fluorescence intensity was 68.5 a.u.
`TAACCATTTCTTCCTGTCGTGGGTAGTTCATACCAT` gave a fluorescence intensity of 86.6 a.u.
`ATGGCTACTTTTATCCCCGTGACGAAATCTATCACT` gave a fluorescence intensity of 617 a.u.
The fluorescence intensity of `CATACCCAACCTTGGAGCGTGGGTGAAGATATTTGT` is reported as 66.4 a.u.

Block 5 — method: universal PBM; form: double-stranded DNA, one strand shown; matrix: in vitro; tested at: not given; reading: higher = stronger binding
Target: Sal-like protein 4, full length isoform B (SALL4, Homo sapiens, UniProt Q9UJQ4-2, residues 1-616)
Notes: 8-mer, flanks averaged, mean of replicates
Residues (chain): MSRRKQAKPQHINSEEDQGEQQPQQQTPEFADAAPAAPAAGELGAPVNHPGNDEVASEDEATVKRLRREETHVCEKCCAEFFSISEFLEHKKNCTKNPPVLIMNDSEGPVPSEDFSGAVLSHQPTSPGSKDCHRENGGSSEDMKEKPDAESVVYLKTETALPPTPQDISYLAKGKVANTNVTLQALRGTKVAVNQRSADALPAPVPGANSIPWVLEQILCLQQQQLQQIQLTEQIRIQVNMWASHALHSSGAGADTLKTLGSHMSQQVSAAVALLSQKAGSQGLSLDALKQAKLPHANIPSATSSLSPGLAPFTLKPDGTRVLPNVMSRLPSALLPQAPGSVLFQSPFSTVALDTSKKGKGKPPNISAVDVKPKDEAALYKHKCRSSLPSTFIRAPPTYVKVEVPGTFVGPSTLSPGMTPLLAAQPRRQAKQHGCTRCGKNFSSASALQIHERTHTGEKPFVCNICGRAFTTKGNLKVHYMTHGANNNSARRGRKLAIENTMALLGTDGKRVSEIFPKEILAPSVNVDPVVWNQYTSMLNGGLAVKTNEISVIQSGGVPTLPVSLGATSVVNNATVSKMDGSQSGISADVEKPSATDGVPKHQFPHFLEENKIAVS
`CCGGAGTA` gave an E-score of -0.188.
The E-score of `ATTGTAGA` is reported as 0.25.
For `CGATATCG`, the E-score was 0.163.
With `CTTTGAAA` the E-score was 0.271.
`AAACCCGA` gave an E-score of 0.148.
`AAACCAGG` has an E-score of -0.135.
`ACAGGGAG` has an E-score of -0.214.
`CCCAGGTA` gave an E-score of -0.0641.
`GATTCTCA` has an E-score of 0.1.
The E-score of `CCGGCCGC` is reported as -0.332.
`ACCGAGTA` gave an E-score of -0.116.
`ATGGCAAC` gave an E-score of 0.22.
`GATGCTCA` gave an E-score of -0.131.
`AATACGCC` gave an E-score of 0.0938.
The E-score of `GCGTGTCC` is reported as -0.274.
The E-score of `CAGGCAGA` is reported as 0.00097.
`AACTCTGT` has an E-score of -0.00851.
`AGTGCCTA` has an E-score of 0.00561.
The E-score of `AACTGATG` is reported as 0.0891.
`CCTTTTCG` has an E-score of 0.109.
`GTCGTTCA` gave an E-score of 0.0316.
For `AGCGCTAG`, the E-score was -0.169.
The E-score of `ACCTAACC` is reported as -0.099.
`GAGTGCTA` gave an E-score of -0.11.

For quick reference, copied from above (block 4):
With `TAGAAATTCCTCCTTCACGTTCTGTTGAAGGGAGGA` the fluorescence intensity was 82.6 a.u.
`TGCGCAACAACTTGTCCTGTGGGTGTATGTCTAGAA` gave a fluorescence intensity of 76.7 a.u.
With `CGGGGTTAAGTTTGACACGTGGGTGGCTTGCAGCAG` the fluorescence intensity was 827 a.u.
For `ACAATCGCATAATCGCACGTATATACAGGCACACAA`, the fluorescence intensity was 77.4 a.u.
For `CTTGGATGGATAGGACACGTGACGGCTTGAATGTAG`, the fluorescence intensity was 6450 a.u.
`AAAGCCAGGCCGAGTCACGTCAGTTGCTGACCCTGG` gave a fluorescence intensity of 81.2 a.u.
`TAACCATTTCTTCCTGTCGTGGGTAGTTCATACCAT` gave a fluorescence intensity of 86.6 a.u.
With `CGGGGTTAAGTTTGTTGCGTGGGTGGCTTGCAGCAG` the fluorescence intensity was 87.8 a.u.
The fluorescence intensity of `CGGGCCTCAGGCAGCCACGAGGTAGACGGGCTCAGG` is reported as 71.1 a.u.
`ATGGCTACTTTTATCCCCGTGACGAAATCTATCACT` gave a fluorescence intensity of 617 a.u.
The fluorescence intensity of `CATACCCAACCTTGGAGCGTGGGTGAAGATATTTGT` is reported as 66.4 a.u.
